Measured values pooled from the literature.
Each numbered part is a random draw from the data of one study; scales do not carry over between parts.

Series 1 — method: Sort-seq; refers to: YFP reporter; matrix: E. coli; setting: PhoQ-PhoP variant library; added: 10 µM Mg2+; relative to: high Mg2+ state; reading: higher = stronger signaling; endpoint: fold induction
Molecule: PhoQ, residues 284 288 289 292 302 303 SLSLLA
PhoP, residues 12 14 15 18 19 QYCSL (Escherichia coli, UniProt P23836): 4.48
PhoP, residues 12 14 15 18 19 STHWV (Escherichia coli, UniProt P23836): 27.9
PhoP, residues 12 14 15 18 19 SHWTV (Escherichia coli, UniProt P23836): 25.3

Series 2 — method: protein binding microarray; form: double-stranded DNA, one strand shown; matrix: in vitro; concentration: not given; relative to: not given; reading: higher = stronger binding; endpoint: E-score
Target: Histone acetyltransferase KAT6A, winged helix 2, GST fusion (KAT6A, Homo sapiens, UniProt Q92794, residues 85-181)
Setting: 8-mer, flanks averaged, mean of 2 arrays, mostly near background
Residues (chain): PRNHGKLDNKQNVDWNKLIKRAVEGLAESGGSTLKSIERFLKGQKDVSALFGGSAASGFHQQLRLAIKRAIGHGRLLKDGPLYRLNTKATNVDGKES
AGAGGGGC: 0.177
GTTGTAAA: -0.0599
GTTAGCTA: -0.105
GTGTCAAA: 0.0894
GCCTATCC: -0.161
ATCTTAGG: -0.0485
GGTGTTTA: -0.00352
CGCAAACG: 0.0429
TAAATCCA: 0.00671

Series 3 — method: protein-binding microarray; form: double-stranded DNA, one strand shown; matrix: in vitro; concentration: 2540 nM top; setting: 60-bp whole probe; added: salmon DNA 0.4 mg/ml; relative to: random background probes; reading: higher = stronger binding; endpoint: fitted relative affinity; all sequences stand within: GCCTAGCAC … GTCTTGATTCGCTTGACGCTGCTG
Target: Interferon regulatory factor 3, full length, phosphomimetic (IRF3, Homo sapiens, UniProt Q14653, residues 1-427, S386D/S396D/S398D/S402D/T404D/S405D)
Target sequence (chain): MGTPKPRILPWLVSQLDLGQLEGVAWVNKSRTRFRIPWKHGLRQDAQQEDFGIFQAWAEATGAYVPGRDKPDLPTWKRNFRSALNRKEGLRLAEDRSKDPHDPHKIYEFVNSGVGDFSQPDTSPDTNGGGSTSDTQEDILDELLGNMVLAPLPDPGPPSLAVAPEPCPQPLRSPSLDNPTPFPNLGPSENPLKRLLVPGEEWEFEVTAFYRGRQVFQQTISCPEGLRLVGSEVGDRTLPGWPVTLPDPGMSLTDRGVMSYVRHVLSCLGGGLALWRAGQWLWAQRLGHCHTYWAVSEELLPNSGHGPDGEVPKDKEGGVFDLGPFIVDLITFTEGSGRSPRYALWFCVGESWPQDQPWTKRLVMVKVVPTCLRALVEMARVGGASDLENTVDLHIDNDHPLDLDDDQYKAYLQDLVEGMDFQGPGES
GTAGGACTGGACTTTCGGTTAGTGCTA: 0.927 z-score
GACGAGATCAGTTTCGAGACGTGCTAG: 3.18 z-score
TCGGTTTCCAAATTGTCTCTGTGCTAG: 8.33 z-score
TCAAGTCTCAATATTAGACTGTGCTAG: 0.257 z-score
AGACATTCTTTCAGTTGGAAGTGCTAG: 0.52 z-score

Series 4 — method: RNA Bind-n-Seq; form: RNA; matrix: in vitro; concentration: not given; relative to: input RNA pool; reading: higher = stronger binding; endpoint: bound/input enrichment
Target: RING finger protein unkempt homolog, zinc fingers 1-6, GST-SBP tag (UNK, Homo sapiens, UniProt Q9C0B0, residues 30-357)
Setting: RNA with constant flanks, human-mouse chimeric sites, ends assumed
Target sequence (chain): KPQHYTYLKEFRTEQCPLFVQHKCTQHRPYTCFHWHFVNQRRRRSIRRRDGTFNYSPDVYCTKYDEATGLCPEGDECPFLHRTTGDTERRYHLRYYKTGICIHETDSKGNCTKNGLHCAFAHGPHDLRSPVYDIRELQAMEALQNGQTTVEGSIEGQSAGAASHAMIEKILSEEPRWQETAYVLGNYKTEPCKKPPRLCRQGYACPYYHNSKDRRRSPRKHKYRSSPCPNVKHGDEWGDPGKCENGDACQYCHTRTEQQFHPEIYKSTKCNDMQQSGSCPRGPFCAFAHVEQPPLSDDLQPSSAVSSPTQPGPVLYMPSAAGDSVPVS
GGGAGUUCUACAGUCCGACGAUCCAUGUAUCUGCAGUACUUGAUGUGGACUACUCUCCCACUGGGAAGGAAUUUGUGUCUGCCAGCUUUGAUAAGUCUAUUAGAAUCUUUCCUGUAGACAAGAGCCGAAGCAGGGAAGUGUAUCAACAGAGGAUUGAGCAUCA: 0.612 ratio
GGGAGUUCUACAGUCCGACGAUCGAAUCCUACUCAGGCGGAUUUUGCAACACCAAGCUCAAGUAGCAAUUAUCUUAGUCACAGUAGGGUAGUUUUGGGGCUCUGUGGCCAGGGUUUUAUUCAUGUGCAGGUUUGGAAAAUGUACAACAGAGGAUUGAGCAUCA: 2.09 ratio
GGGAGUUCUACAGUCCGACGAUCGCUCCUCCCCGCUCUGCAGCCUGGGGACACUGGGCUGGGACCAGAAUCCAGCUUUCUUUUAAAACUCUAUAUUUUUUUUCUUUUUCUGACAUUUCAUUUUUUUUAAAUAGUGUAUUUUUUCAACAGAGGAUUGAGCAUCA: 31.2 ratio
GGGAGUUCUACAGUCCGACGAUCUUGCUACUGACUCCCUGGGUCAAGUUCCUGUGGGAGUCAUACAGGCAGUGUUUGGACCUUCUUAGAAACAAUUCUAGAGUAGAGCGCCUUUACCAUGAUAUCGCCCAACAAGCUUUCAAACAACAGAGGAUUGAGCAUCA: 0.207 ratio
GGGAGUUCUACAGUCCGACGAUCGCUCUUGGCAAUGUAAUCAGCGCCUUGGGGGACAAGAGCAAGAGAGCCACCCAUGUCCCUUACAGAGACUCUAAGCUGACAAGACUCUUGCAGGAUUCCCUCGGGGGUAACAGCCAAACCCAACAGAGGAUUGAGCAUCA: 0.0914 ratio

For quick reference, copied from above (series 4):
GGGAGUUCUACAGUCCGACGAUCCAUGUAUCUGCAGUACUUGAUGUGGACUACUCUCCCACUGGGAAGGAAUUUGUGUCUGCCAGCUUUGAUAAGUCUAUUAGAAUCUUUCCUGUAGACAAGAGCCGAAGCAGGGAAGUGUAUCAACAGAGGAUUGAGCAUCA: 0.612 ratio
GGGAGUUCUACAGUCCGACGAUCGAAUCCUACUCAGGCGGAUUUUGCAACACCAAGCUCAAGUAGCAAUUAUCUUAGUCACAGUAGGGUAGUUUUGGGGCUCUGUGGCCAGGGUUUUAUUCAUGUGCAGGUUUGGAAAAUGUACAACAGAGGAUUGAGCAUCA: 2.09 ratio
